Results of several laboratories.
A part holds a random share of what one study measured.

Sample 1
Target: Replicase polyprotein 1ab, polymerase (rep, Severe acute respiratory syndrome coronavirus 2, UniProt P0DTD1)
Observed: enzyme activity
Action: inhibitor
Tested at: 20 µM
Endpoint: inhibition
CO[C@H]1O[C@@H]2O[C@@]3(C)CC[C@H]4[C@H](C)CC[C@@H]([C@H]1C)[C@@]24OO3: 0.92%
O=C(O)c1cc(=O)c2ccccc2o1: 0.27%
C#C[C@]1(OC(C)=O)CC[C@H]2[C@@H]3CCC4=C[C@@H](OC(C)=O)CC[C@@H]4[C@H]3CC[C@@]21C: -4.34%
O=C(OCCN1CCOCC1)c1cccnc1Nc1cccc(C(F)(F)F)c1: 1.77%
Cc1ccc2cc(-c3c(C)ccc(C(=O)c4c(-c5ccccc5)n(C)n(-c5ccccc5)c4=O)c3N)ccc2n1: -5.99%
O=C1C2CCN(CC2)C1(CO)CO: 1.86%
O=C(C1CCCCC1)N1CC(=O)N2CCc3ccccc3C2C1 (stereo not shown): 16.6%
C[C@@H](O[C@H]1OCCN(Cc2n[nH]nc2CN(C)C)[C@H]1c1ccc(F)cc1)c1cc(C(F)(F)F)cc(C(F)(F)F)c1: 1.55%
CC[C@H](C)[C@H](N)C(=O)O: 5.11%
CNC(=O)[C@H](Cc1c[nH]c2ccccc12)NC(=O)[C@@H](CC(=O)NO)CC(C)C: -7.68%
C[C@H](Cc1ccc(OCC(=O)O)cc1)NC[C@H](O)c1cccc(Cl)c1: 1.2%
C[C@H]1C[C@H]2[C@@H]3CCC4=CC(=O)C=C[C@]4(C)[C@@]3(Cl)[C@@H](O)C[C@]2(C)[C@@]1(O)C(=O)CO: 3.04%
COc1ccc(-c2ccc3c(N4CCOC[C@@H]4C)nc(N4CCOC[C@@H]4C)nc3n2)cc1CO: 5.1%
O=C(CCCCCCCn1cc(-c2cccnc2)nn1)Nc1ccccc1-c1ccccc1: -1.98%
CCN(CC)C(=O)c1ccc(C2=CC3(CCNCC3)Oc3cccc(O)c32)cc1: -4.64%
CCC1(c2ccc(N)cc2)CCC(=O)NC1=O (stereo not shown): 3.48%
O=C(O)CCNc1cc(N2CCc3ccccc3CC2)nc(-c2cccnc2)n1: -5.7%
N[C@@H](CS(=O)O)C(=O)O: 2.57%
CCn1nc(C)c2c1C(c1ccccc1)=NCC(=O)N2: 0.25%
OC[C@H]1O[C@@H](n2cnc3c(N[C@H]4CCC[C@@H]4O)ncnc32)[C@H](O)[C@@H]1O: 0.57%
O=C(CBr)N1CC([N+](=O)[O-])([N+](=O)[O-])C1: -2.58%
CCCCCCCCCCCCCCCC(=O)OC[C@H](COP(=O)([O-])OCC[N+](C)(C)C)OC(=O)CCCCCCCCCCCCCCC: -5.42%
COc1cc(-c2cc(-c3cccc(O)c3)cnc2N)cc(OC)c1OC: -0.03%

Sample 2
Target: RING finger protein unkempt homolog, zinc fingers 1-6, GST-SBP tag (UNK, Homo sapiens, UniProt Q9C0B0, residues 30-357)
Sequence of UniProt Q9C0B0 (30-357, looked up): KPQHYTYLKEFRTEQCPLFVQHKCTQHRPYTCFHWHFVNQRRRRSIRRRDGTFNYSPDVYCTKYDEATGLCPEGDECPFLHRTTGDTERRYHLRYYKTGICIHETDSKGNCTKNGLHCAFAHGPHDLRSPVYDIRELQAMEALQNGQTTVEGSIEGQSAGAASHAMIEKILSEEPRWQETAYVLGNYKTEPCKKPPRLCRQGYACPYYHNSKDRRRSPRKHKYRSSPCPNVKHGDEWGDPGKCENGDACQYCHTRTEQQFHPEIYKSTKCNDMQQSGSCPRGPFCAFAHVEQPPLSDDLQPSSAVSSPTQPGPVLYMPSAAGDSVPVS
Method: RNA Bind-n-Seq
Molecule type: RNA
Medium: in vitro
Tested at: not given
Notes: RNA with constant flanks, human-mouse chimeric sites, ends assumed
Reference: input RNA pool
Direction: higher = stronger binding
Endpoint: bound/input enrichment
All sequences stand within: GGGAGUUCUACAGUCCGACGAUC … CAACAGAGGAUUGAGCAUCA
GCUGAAAAUGAAGAAGAGGCAGCUGAUGUCUGGUACAACCUGGGGCACAUAGCUGUGGGAAUCGGAGAUACAAACUUGGCCCAUCAGUGCUUCAGGCUGGCUCUGGUCCACAACAACCAC: 0.167 ratio
GGCCUGGGACCGUCCUGGCUAGUGCAAAAUAGCGGCAGUGGAGGCUCGAGAGGAAAGUUUGUUAGUGGAGGCAGUGGUAGAGGCCGUCAUGUACGGUCCUUUACUCGAUAGAUGUGUUCU: 0.937 ratio
GAAAGAGAACUAAAGCAACUAAUAGAGAAGAGGAUUGGCAAAGAGAAUUUCAUAGAGAAACUAGGAUUUAUUAGCAAAACAUGAGUUUAUUCCAGAGCGUCUCAGAAACCCCAGCCAAAC: 9.85 ratio
UCCCAAAUCCAGCAGCUCCUUGAAAUAUUGAGACAAACACUCCACACACAGGGAAGGCGAUAACAUUGUAAAUUGGUUUACAUUUUUUCCCCCUGUGGAUUUUUCUAGAGGUCAUAGUGC: 0.399 ratio
CCCUCCCCGGGCCACCCACCCCUCCCGCUCCCAGCGGGAGAUCCAGGUUUCUUCUUAUUUCAUAGCAAAUAAGAAAAAUGUUCUACGCACAUUUUGUCCUCAGUAAACGAGGGCCUCUGG: 0.349 ratio
GAUCAUGAACCACCAUCAGAAAUGAAGAUGAGAUUACCCAAGACGAGCAAAACAGCUGCGCUACAGAAAAGUAAACUUAACCUUGCAGAGUUCCUUAAAUGAAGAUCAAGUUAAGAGAGC: 0.277 ratio
AACGUGGAGUUGAGUUCCUUGGCCCGGCUUCCCAGCUUAAAUAAACUUCGAAAAUUGGAACUUAGUGACAAUAUAAUUUCUGGAGGCUUGGAAGUCCUGGCAGAGAAAUGUCCAAAUCUU: 0.366 ratio
AAAUUUCCCCUCCUGAGACCUCCUCCGAAGUUGGAGUCUCUUACAGAUGGUUCAUCUCCUGUUAGCGUUUUAGUUUGGACCACCCAGCCUUGGACAAUUCCCGCCAACCAGGCAAUUUGC: 0.731 ratio

Sample 3
Cell line: HEK-293T
Observed: pseudovirus infection
Method: FDA-approved drug library screen
Organism: VSV pseudotyped with SARS-CoV-2 spike
Tested at: 10 µM
Time: 16 h
Reference: vehicle-treated
Endpoint: GFP-positive cells
C[C@]12CC[C@@H]3c4ccc(O)cc4C[C@@H](CCCCCCCCC[S+]([O-])CCCC(F)(F)C(F)(F)F)[C@H]3[C@@H]1CC[C@@H]2O (stereo partly shown): 72.9%
CC1=CC(=O)c2ccccc2C1=O: 97.2%
O=c1[nH]c(=O)n([C@H]2C[C@H](O)[C@@H](CO)O2)cc1F: 88.3%

Sample 4
Target: Histone acetyltransferase KAT6A, winged helix 1, GST fusion (KAT6A, Homo sapiens, UniProt Q92794, residues 1-85)
Method: protein binding microarray
Molecule type: double-stranded DNA, one strand shown
Medium: in vitro
Tested at: not given
Notes: 8-mer, flanks averaged, mean of 2 arrays, mostly near background
Reference: not given
Direction: higher = stronger binding
Endpoint: E-score
Construct (chain): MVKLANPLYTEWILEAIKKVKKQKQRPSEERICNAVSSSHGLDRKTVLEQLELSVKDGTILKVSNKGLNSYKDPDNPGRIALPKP
CGCATTCC: 0.198
GCATGAGC: -0.00468
AGCTACAG: -0.155
AATTATGA: 0.0709
CCTAATCC: -0.05
AGCATAAG: -0.103
GGAGCGAC: 0.113
CCCATTCG: -0.0787

Sample 5
Target: Replicase polyprotein 1ab, main protease (rep, Severe acute respiratory syndrome coronavirus 2, UniProt P0DTD1)
Observed: enzyme activity
Action: inhibitor
Tested at: 20 µM
Notes: hit confirmation
Endpoint: inhibition
S=C=NCc1ccccc1: 76.3%
O=C(/C=C/c1ccc(O)c2c1[C@@H](C(=O)O[C@H](Cc1ccc(O)c(O)c1)C(=O)O)[C@H](c1ccc(O)c(O)c1)O2)O[C@H](Cc1ccc(O)c(O)c1)C(=O)O: 88%
S=c1nn[nH]n1-c1ccccc1: 110%
COc1ccc(C(=O)n2nc(-c3ccccc3)nc2N)cc1OC: 59.2%

Excerpt of the above (sample 2):
GAAAGAGAACUAAAGCAACUAAUAGAGAAGAGGAUUGGCAAAGAGAAUUUCAUAGAGAAACUAGGAUUUAUUAGCAAAACAUGAGUUUAUUCCAGAGCGUCUCAGAAACCCCAGCCAAAC: 9.85 ratio
UCCCAAAUCCAGCAGCUCCUUGAAAUAUUGAGACAAACACUCCACACACAGGGAAGGCGAUAACAUUGUAAAUUGGUUUACAUUUUUUCCCCCUGUGGAUUUUUCUAGAGGUCAUAGUGC: 0.399 ratio
GGCCUGGGACCGUCCUGGCUAGUGCAAAAUAGCGGCAGUGGAGGCUCGAGAGGAAAGUUUGUUAGUGGAGGCAGUGGUAGAGGCCGUCAUGUACGGUCCUUUACUCGAUAGAUGUGUUCU: 0.937 ratio
AACGUGGAGUUGAGUUCCUUGGCCCGGCUUCCCAGCUUAAAUAAACUUCGAAAAUUGGAACUUAGUGACAAUAUAAUUUCUGGAGGCUUGGAAGUCCUGGCAGAGAAAUGUCCAAAUCUU: 0.366 ratio
CCCUCCCCGGGCCACCCACCCCUCCCGCUCCCAGCGGGAGAUCCAGGUUUCUUCUUAUUUCAUAGCAAAUAAGAAAAAUGUUCUACGCACAUUUUGUCCUCAGUAAACGAGGGCCUCUGG: 0.349 ratio
GAUCAUGAACCACCAUCAGAAAUGAAGAUGAGAUUACCCAAGACGAGCAAAACAGCUGCGCUACAGAAAAGUAAACUUAACCUUGCAGAGUUCCUUAAAUGAAGAUCAAGUUAAGAGAGC: 0.277 ratio
AAAUUUCCCCUCCUGAGACCUCCUCCGAAGUUGGAGUCUCUUACAGAUGGUUCAUCUCCUGUUAGCGUUUUAGUUUGGACCACCCAGCCUUGGACAAUUCCCGCCAACCAGGCAAUUUGC: 0.731 ratio
